# Published values from different studies.
# Every numbered part comes from another study and shows a few of its results, in no order. Positions count from the first letter of the parent shown.

# Series 1 — technique: DHFR PCA, dose-response; matrix: yeast; together with: (+)-ABA, dose series; direction: lower = more sensitive
# Target: ABI1, truncated, D143A, DHFR fusion (Arabidopsis thaliana, UniProt P49597)
# Notes: Hill fit, not affinity, not high confidence
# Starting sequence: PYL1, truncated, DHFR fusion (Arabidopsis thaliana, UniProt Q8VZS8); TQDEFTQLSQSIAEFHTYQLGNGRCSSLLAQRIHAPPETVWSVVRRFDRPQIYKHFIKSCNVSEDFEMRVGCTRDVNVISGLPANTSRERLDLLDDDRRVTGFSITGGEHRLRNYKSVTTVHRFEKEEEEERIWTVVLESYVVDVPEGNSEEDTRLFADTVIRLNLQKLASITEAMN
Substitution,ABA EC50 [µM]
I33R,84.5
S117M,2460
H110C,413
I162W,2.78
S80D,156
V145Y,215
N177M,1.62
L166P,1.7
F47D,10.1
A84I,0.417
L82N,657
E89C,8.5
T101D,28.3
R74C,0.193
I33G,8.06
F157E,4.59
R45W,30.9
P50W,374
H16F,771
S140R,736
S140V,2.76

# Series 2 — target: CCNE2, cyclin fold, Cln2 fusion (human); technique: yeast growth competition, sequencing; matrix: yeast; notes: weak parent motif; relative to: not given; direction: higher = stronger binding
# Starting sequence: MASTL docking peptide (human); PMIAKNLMCELDE
Substitution,normalised enrichment score
E10A,-0.137
E10C,-0.166
M8D,-0.0513
C9D,-0.261
K5W,-0.0933
A4D,0.0921
I3D,-0.444
K5V,-0.146
N6H,-0.031
M8C,-0.339
D12V,0.0866
C9M,0.0367
K5F,-0.0805
N6A,-0.228
L11R,-0.0505
A4M,-0.183

# Series 3 — technique: RNA Bind-n-Seq; form: RNA; matrix: in vitro; concentration: not given; relative to: input RNA pool; direction: higher = stronger binding
# Target: RING finger protein unkempt homolog, zinc fingers 1-6, GST-SBP tag (UNK, Homo sapiens, UniProt Q9C0B0, residues 30-357)
# Notes: RNA with constant flanks, human and mouse sites, ends assumed
# Constant ends, left off below: GGGAGUUCUACAGUCCGACGAUC … CAACAGAGGAUUGAGCAUCA
# Residues (chain): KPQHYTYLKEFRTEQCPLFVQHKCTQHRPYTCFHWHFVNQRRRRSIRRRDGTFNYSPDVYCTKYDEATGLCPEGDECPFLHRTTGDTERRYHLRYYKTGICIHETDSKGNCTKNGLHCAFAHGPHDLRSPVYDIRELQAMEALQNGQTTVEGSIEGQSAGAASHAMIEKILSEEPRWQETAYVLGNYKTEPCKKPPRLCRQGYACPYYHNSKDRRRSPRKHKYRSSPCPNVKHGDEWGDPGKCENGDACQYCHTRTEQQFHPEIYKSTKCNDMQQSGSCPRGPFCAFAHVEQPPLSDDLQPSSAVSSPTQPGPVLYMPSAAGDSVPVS
Oligonucleotide,bound/input enrichment
AAGUUGCAUCUCAGCGGCAGCCCCAGCGCCCAGCAGUAUGCCGCAGCCAGUGCCGUGCUUUUGGACAAUCUCCCGGGAGUCCGUUGGCUCGUGCUUCCACAGGAACUCAAGGUGGAACUG,0.0951 ratio
GAAUAUAUAGAUCAAGGUCGAAAUCCCCAGCUCUACACCAAAGAGUGCCUGGAGAGGGCUCUAGCUAAAAAUGAGCAAGUUAAAGGCAAGAUCGACACCAUGAAGAAAUUUAAAAGCCUG,0.247 ratio
GAACAUAUUCUUAAAUAUGAGGAAUCUCUAGCUGACUCAGACAAUAAAGGUGUAAAUUCUGGAAGAUUGGUAGCUUGUAUAACCACUUUGUUCUUAUUCAGCAAAAUAAGACCCCAACUC,0.188 ratio
UCUCUUCUUACUCAUUACUGCAAAUUGAUUGUCUUUCCCCCCUCCCUCCAGUACCAUAAUCUUAGAGACAAACCUUAAAACAGCUGUUUUUAGGCUGUUCCUUGUACUCUUAGGAUAUUU,1.28 ratio
AAGCACUUACAACUUAGCACUAGUCAUCUGUGUCUCCUGGGAGUUUUCUGAUUGGCCGGAUAUGACAGCUUUUGGUUAAACCCUGAGUCUUGAGACUGAGGAAAAGCUGUGUGUCUAUAG,0.411 ratio
UUAGAAAAUACAUUUGAAGGUCAUAAAAGUAAAAACAAGGAAGAUUGCGAUGAACGUGACUUACUUACUGUCAACCGGAAAAUAAAAAUAUCUAACCUUGAAAAGGAACAAAUGCUCACC,0.524 ratio
GAAUUUCAGGAAUAUACCAUGCUGUGUCUGUUGUGUGGCAAAGCUGAAGAUACUAUCAGUAUUCUCCCUGAUGACCCCCGGCAGAUGACUCUGCUGUUCUAAGCCUCCCAUGGUUCUCUU,0.197 ratio
GUCCGUGAACUGGUCUCAGGGGGCCGAAGUGUCCGGUUCUCUGAGGCAGAGCAGCGCUGUGUAUCUCGUGGCUUCACACCCGCCCAGUUCCAGGCGGCUCUGGAUGAAUAUGAGGAGCUC,0.0666 ratio

# Series 4 — technique: RNA Bind-n-Seq; form: RNA; matrix: in vitro; concentration: 365 nM; relative to: no-protein control; direction: higher = stronger binding
# Target: RNA binding protein fox-1 homolog 2, RRM domain, GST-SBP tag (RBFOX2, Homo sapiens, UniProt O43251-10, residues 100-194)
# Notes: natural RNA segment, single round, ends assumed
# Constant ends, left off below: GGGAGUUCUACAGUCCGACGAUC … UGGAAUUCUCGGGUGCCAA
Oligonucleotide,RBNS enrichment (R)
UGGAGGCUGUGGGGUGUAACUUUGGGUUUGUAUUUUUUCUGCUCAUCUUUCUGCCUGUCACCGGGUGUGCUGUUUUUCUGAAAAAAAAACAGGCCCCAAGGGCCCUGAGC,0.381
CAAAUAACAUGAAACGUGCUCUGUCGACUCAAUAUUAAAGCCAGGGUGAAGAGUUGCAAACCCCUCUGUCCCUGCAGUACUGCCUGAGUGUGUGGUGAUUCUGGGCUCUC,0.362
UCCAUCCAGACCACUUCACCUGCACAUUCUGCCUGCGCCCACUCACCAAAGGCUCCUUCCAGGAGCGCGCCAGCAAGCCUUACUGCCAGCCUUGCUUCCUGAAGCUCUUC,1.42
AAUGACUUCUUCCUAGAGGACAACAAUGACCAGGACACUGGCAGCUCCUGAUCCUGACCUCUGCAGCCUCUUUAACUGCCCCUCCUAUGGCCCCUGCCCUUCUCUUUCUC,0.629
AAUCAAGCAAAUGGUCCUCUAUUAAGUAAAAAGUAGAAGAGCAAUGUGGUUCUUUUCAGUGUGCCUGCAUAGCGUUCCUGUGUGUACCCCAAGGAUAACUGUAUGCUAUC,0.451
ACCCAGAGAUUUUUGAGGGAUGAACGGGUAGACAAGGACUGAGAUUGCCUCUGACUUCCUCCUCCCCUGGGUUCUGACUUCUUCCUCCCCUUGCUUCCAGGGAAGAUGAA,1.66
UGUUAUUUUAUUUUCCAUACAGUAAAAAAUGUCCUCUCUUAACUCCUCUCACCCCCAACUCCCAAGGCAAAAGAGAAACCAAAAGUAGGACAAAAGAAAGAGACAGACAG,0.612
GGAGCUCUUGGAUAUCAUUGGCCAUGUUUCAAUCGAAUGGAGCCACUGGGCCCCAACACUGGCUUUGAGAUUUAGAGUCAAAGGGUAGAGUGAACAGGAAAGGGUCACGU,0.678

# Excerpt of the above (series 1):
Substitution,ABA EC50 [µM]
E89C,8.5
R74C,0.193
R45W,30.9
N177M,1.62
L166P,1.7
